Assay results from different studies.
Numbered parts are unrelated; each lists some results of a single study. Substitutions count along the parent as printed.

Sample 1
Target: Fragile X messenger ribonucleoprotein 1, C-terminal low-complexity region (Fmr1, Mus musculus, UniProt P35922)
Method: RNA Bind-n-Seq
Form: RNA
Medium: in vitro
Concentration: 200 nM
Notes: whole 134-nt RNA, ends assumed
With: 150 mM LiCl
Reference: input library
Reading: higher = stronger binding
Each molecule: 7-deaza-guanosine replaces G
Oligonucleotide | log2 enrichment
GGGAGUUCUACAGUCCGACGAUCAAGUCCUGUGCUACACAUCGUAUGUACCGAAUCGGGGCCCCGGCCCCGGGGCCCCGGAAAGUAUUAUGUUACGCCGUUCGGAUCUGCACUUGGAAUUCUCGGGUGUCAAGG | -1.13
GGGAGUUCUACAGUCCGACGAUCCUCAAGUCCUGUGCUACACAUCGUAUGUACCGAAUCGGAAAAAGGAGGAAAGGAAAGUAUUAUGUUACGCCGUUCGGAUCUGCACUUCCAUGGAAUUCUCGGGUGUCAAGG | -1.08
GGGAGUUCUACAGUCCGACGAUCUCCUCAAGUCCUGUGCUACACAUCGUAUGUACCGAAUCGGAGGAGGGAGGGAAAGUAUUAUGUUACGCCGUUCGGAUCUGCACUUCCAGCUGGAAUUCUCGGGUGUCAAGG | -2.12
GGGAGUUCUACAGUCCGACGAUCUGGCCCUGGUGGCAUGCGGGGAGGAAGAGGUGGCCUCAUGGAUCGUGGUGGUCCCGGUGGAAUGUUCAGAGGUGGCAGUGGUGGAGACAGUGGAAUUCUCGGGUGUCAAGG | -0.294
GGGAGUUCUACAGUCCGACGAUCCCUGUGCUACACAUCGUAUGUACCGAAUCAAAGUGUGUGUGUGUGAAAUGUGUGUGUGAAAAAAGUAUUAUGUUACGCCGUUCGGAUCUGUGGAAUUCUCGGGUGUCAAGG | -1.48
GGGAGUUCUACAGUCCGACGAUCCAAGUCCUGUGCUACACAUCGUAUGUACCGAAUCAAAUUUAAACCCAAACCCAAAAAAGUAUUAUGUUACGCCGUUCGGAUCUGCACUUCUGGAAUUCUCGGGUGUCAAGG | 0.988
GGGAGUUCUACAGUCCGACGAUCCACAGACAACACGCACCCACACAGACACAGAGGGAAGGGGUUGGGAUGGGGACAGGGUGCACAGCAGGGCGGGGUAGGGCCCCAGCCCCUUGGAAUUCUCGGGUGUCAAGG | 0.904
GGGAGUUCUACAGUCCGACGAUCGUCCUGUGCUACACAUCGUAUGUACCGAAUCGGGUUUUUGGGAAAAAAAGGGAAAGGGAAAGUAUUAUGUUACGCCGUUCGGAUCUGCACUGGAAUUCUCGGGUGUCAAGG | -1.88
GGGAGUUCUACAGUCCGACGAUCAGUCCUGUGCUACACAUCGUAUGUACCGAAUCGGGGAGGGGUUUUUGGGGAAAGGGGAAAGUAUUAUGUUACGCCGUUCGGAUCUGCACUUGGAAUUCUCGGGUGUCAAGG | 0.0396
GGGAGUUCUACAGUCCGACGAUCACCAUGCAGGUGGGCGUCUUUGGGAAGUGGGGCAAGGGGGGGAUAGGGAGGGGGGUAACACUUUGGGAACAGGUGGUCCCAGGUCGUUUCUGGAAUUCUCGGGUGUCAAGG | 1.57
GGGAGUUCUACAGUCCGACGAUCACCAUGCAAGUGGGCAUCUUUGGGAAGUGGGGCAAGGGGGGGAUAGGGAGGGGGGUAACACUUUGGGAACAGGUGGUCCCAGGUCGUUUCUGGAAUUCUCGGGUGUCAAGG | 1.18

Sample 2
Target: RNA binding protein fox-1 homolog 2, RRM domain, GST-SBP tag (RBFOX2, Homo sapiens, UniProt O43251-10, residues 100-194)
Method: RNA Bind-n-Seq
Form: RNA
Medium: in vitro
Concentration: 365 nM
Notes: natural RNA segment, single round, ends assumed
Reference: no-protein control
Reading: higher = stronger binding
Target sequence (chain): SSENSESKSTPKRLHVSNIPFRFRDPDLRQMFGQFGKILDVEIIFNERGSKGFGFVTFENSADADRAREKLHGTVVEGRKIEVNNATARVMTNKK
Oligonucleotide | RBNS enrichment (R)
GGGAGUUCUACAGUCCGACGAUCGGAAGGAAGAAAUGCGUUUAGAUCUUGGAUGCAGACCUUUCAAAGGGUUAAAUGUAACCAUAUGGAUCAACCACAUGCACAUCCUUACUACAGAAUCCGUCCUUUCAUUUUGGAAUUCUCGGGUGCCAA | 0.218
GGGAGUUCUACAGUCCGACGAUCCUGGCAAUGUUUAAGGACAACAAGUUCAAAUGCCGGAUAUUGAAUGAAAAGGUGAAUACUCCAACUACCACAGUCUAUAGGUGUGGCCCUUUGAUAGAUCUCUGCCGGGGUGGAAUUCUCGGGUGCCAA | 0.668
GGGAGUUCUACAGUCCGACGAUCAUUGUGUGAACCACUCUUAGCAGGCAUUGCUACUGGAUUCUUAACUAGAGAAAACUUACAGAACAGGUGUUAAGCCUUUUCCAAUAUUUAGUAUUGUAGUCUUCAUAGAAUGGAAUUCUCGGGUGCCAA | 0.246
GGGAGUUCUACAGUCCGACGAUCUGCUGCUCAACUCCACGCUCACUGCCUCUGAGUGGCCCGGCCAGGGGAGGGACAGAUGAUUCUGUGAUGGCAUGGGUAGUGGGUAGUGACAGCCAUGUCUGCGACGAUCAUGGAAUUCUCGGGUGCCAA | 0.948
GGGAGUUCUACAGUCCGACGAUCGCAGAGGCAUAAUCCAGAUAAGUAGCAGAUGUCAUAUUUCAUAAGCUCUUUUGGCCUGGGUACAGCAGAAAACUAGCAGUUUUCCUACUUGGCGCAAGUGACUUGUGCCUUGGAAUUCUCGGGUGCCAA | 0.323
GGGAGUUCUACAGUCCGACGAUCAGCAGCCAGAGCAGUUAGCCAGUUAGUCCCCAGGCCUGUGGCCACAGGCGUUUCUGACCUGCUGGGCCGAGAAUGGGUAAGUUGUCUGGAGUCAGGUGGGCCCACGUAGGUGGAAUUCUCGGGUGCCAA | 0.75
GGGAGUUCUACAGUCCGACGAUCCGAGACACCCUUUAGUAGUUUGACAGCUUGCGUGUGUGCCGCCUAAUUAGAGCACAGGGAGCAGGGCAGCUGUUAUUCCUGUUUUACCAAGUCAAGGCUUAGGGAAGUUCUGGAAUUCUCGGGUGCCAA | 0.711
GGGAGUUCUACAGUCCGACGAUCCGUUGUAUUAAAAACAAGAUAAAAAAGCUGCCAAGAUUUUUGGCGAGUGGUUGGUCUGAAGUCCUUGCAAGACGCUGAUGCUCAAGCUGUUGACAUACUCAUUGCCUACUUGGAAUUCUCGGGUGCCAA | 0.292
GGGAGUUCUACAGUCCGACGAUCACUUGACACUUUGGGAGGCCAAGCUGGGCAGAUCACCUGAGGUCAGGAGUUUGAGACCAGCCUGGCCAACAUGGUGAAACCCCAUCUCUACUAAAAAAAAUACAAAAAUUUGGAAUUCUCGGGUGCCAA | 0.31
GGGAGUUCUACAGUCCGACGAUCCAUCUUUACGAUAUAAAAUGAUGGCUCUCAAAUGAUUUUUCCAUCCAUUGUCCCGAUCCAGCUAUCACCCAGGGGUCCAUACAUUUUCUUCAUGUUUCUUCUUUGUAUAUUGGAAUUCUCGGGUGCCAA | 0.948
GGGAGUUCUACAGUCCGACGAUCGACGAUUCCUGACCACACUGUCCAGCUCUUGCUCUCAUUAAAUGCUCUGUCUCCCGCGGAAAGCUCCCUGUGCUGCUGACUUGUCUCUGGUUUUCUGCAGUGUGGGGAGCUGGAAUUCUCGGGUGCCAA | 0.329
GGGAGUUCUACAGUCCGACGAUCGGUGUUAUGUAUAAUGCUUUGUUAAAGAACCCCCUUUCCGUGCCACUGGUGAAUAGGGAUUAAUGAAUGGGAAGAGUUCAGUCAGACCAGUAAGCCCUUCUGGGUUUGAGUGGAAUUCUCGGGUGCCAA | 0.867

Sample 3
Target: Histone acetyltransferase KAT6A, winged helix 1, GST fusion (KAT6A, Homo sapiens, UniProt Q92794, residues 1-85)
Method: protein binding microarray
Form: double-stranded DNA, one strand shown
Medium: in vitro
Concentration: not given
Notes: 8-mer, flanks averaged, mean of 2 arrays, mostly near background
Reference: not given
Reading: higher = stronger binding
Construct (chain): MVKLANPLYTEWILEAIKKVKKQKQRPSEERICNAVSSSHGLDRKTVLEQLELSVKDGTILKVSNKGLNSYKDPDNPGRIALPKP
Oligonucleotide | E-score
AACTCCGA | -0.0527
AAGCAAGG | -0.236
GGGGACCC | 0.0454
GAGGTACA | -0.152
ACTATTTA | -0.0997
CATGTTTA | -0.0102
CTAACTCA | -0.229
CTGACAGC | -0.0485
CCGTAGAA | 0.128
AACCAAAG | -0.306
GCGAAAAA | 0.0477
AGCGAGTC | 0.0592
GGAGACAA | -0.141
CCATACTA | -0.0848
CCCCACAC | -0.187
CGTCGACC | -0.0714
ACGGTGTA | 0.245
ACATATCA | -0.00227
AAGAGGAC | -0.147
AGCGTCCC | 0.0636
GCTACCAC | -0.0747
CATCCCAA | -0.306
CACTACTC | -0.0681
CTGTCAGC | -0.0178
TTATCGAA | 0.000825

Sample 4
Target: CCNE1, cyclin fold, Cln2 fusion (human)
Method: yeast growth competition, sequencing
Medium: yeast
Notes: strong parent motif
Reference: not given
Reading: higher = stronger binding
Starting sequence: PKN2 docking peptide (human); VSAVRKLDFSDTM
Change | normalised enrichment score
A3K | 0.555
S10F | 4.22
T12H | 5.57
F9T | -0.213
K6W | 4.28
D11P | 5.3
D8R | 2.59
T12I | 5.85
T12L | 5.88
F9Q | -0.187
D11V | 5.11
R5M | 0.782
V4F | 4.27
D11W | 4.6
S10Y | 4.35
R5Y | 0.46
S2R | 5.56
S2T | 5.45

Sample 5
Target: Interferon regulatory factor 7, full length, phosphomimetic (IRF7, Homo sapiens, UniProt Q92985, residues 1-503, S471D/S472D/S475D/S476D/S477D/S483D/S484D/S487D)
Method: protein-binding microarray
Form: double-stranded DNA, one strand shown
Medium: in vitro
Concentration: 2200 nM top
Notes: 60-bp whole probe
With: salmon DNA 0.4 mg/ml
Reference: random background probes
Reading: higher = stronger binding
All sequences stand within: GCCTAGCAC … GTCTTGATTCGCTTGACGCTGCTG
Construct (chain): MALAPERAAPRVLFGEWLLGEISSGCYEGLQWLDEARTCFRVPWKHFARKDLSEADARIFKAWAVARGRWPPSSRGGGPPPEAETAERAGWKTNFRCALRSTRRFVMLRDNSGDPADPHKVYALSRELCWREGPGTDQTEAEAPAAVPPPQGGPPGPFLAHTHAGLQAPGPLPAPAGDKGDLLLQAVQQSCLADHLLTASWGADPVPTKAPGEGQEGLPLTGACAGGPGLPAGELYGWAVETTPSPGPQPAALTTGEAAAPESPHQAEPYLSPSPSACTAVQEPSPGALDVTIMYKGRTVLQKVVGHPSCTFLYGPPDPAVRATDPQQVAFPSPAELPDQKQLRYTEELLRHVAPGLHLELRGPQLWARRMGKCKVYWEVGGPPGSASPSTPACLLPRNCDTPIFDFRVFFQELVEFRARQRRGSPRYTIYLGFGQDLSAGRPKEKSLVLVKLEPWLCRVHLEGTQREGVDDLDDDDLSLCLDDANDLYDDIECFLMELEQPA
Oligonucleotide | fitted relative affinity
GACGATTGCAGTCTCGAGACGTGCTAG | 0.2 z-score
TTAGATTTCAGAATGGATTAGTGCTAG | -0.171 z-score
GACAGACTGCTTCTCCTGACGTGCTAG | 0.742 z-score
TCATTATCCTATATCTGACTGTGCTAG | 1.66 z-score
CATCCTGAGTCAAGTCAAGTGTGCTAG | 0.516 z-score
GACGATCTCGGGACTGGAGACGTGCTA | -0.393 z-score
GACGAACTGAGTATCGAGGCGTGCTAG | -0.191 z-score
TTAGGTTTCGCGACTGGGTTAGTGCTA | 1.25 z-score
TTAGATCTCAGGATCGATTAGTGCTAG | -0.219 z-score
TTAGATTTCGGGAATCGATTAGTGCTA | 0.561 z-score
TTAGGACTGCTTTTCCCTTAGTGCTAG | 1.14 z-score
GACGGTATCGGTCTCGGGCCGTGCTAG | -0.205 z-score
GACGGTTTCGACTTTGGGGACGTGCTA | 5.73 z-score
TCAAGTTTCTCCTTTGTACTGTGCTAG | 2.83 z-score
GTCGGACTGGGACTGGGGACGTGCTAG | -0.516 z-score
TTAGATTTCAGTTCCAATTAGTGCTAG | 1.4 z-score
GTCTCTGTTCTTTTCAGTCCGTGCTAG | 2.16 z-score
TTAGGTATCGGTATCGGTCAGTGCTAG | 0.534 z-score
TTAGGTCTCGGACTGGGTCAGTGCTAG | -0.423 z-score
TCACGGGCTTCTTTTTCTACTGTGCTA | 0.258 z-score
TTAGGTATCCTACTGCTGTAGTGCTAG | 0.383 z-score
GACGATTTCAGTCACGAGACGTGCTAG | 0.368 z-score
TCCAGGGCGGTGGGTGGCCCGTGCTAG | -1.35 z-score
GACGATCTCACTTTCGAGACGTGCTAG | 5.23 z-score
TTAGGTATCCTTCACCTTTAGTGCTAG | 0.785 z-score

Some of these lines once more (sample 5):
Oligonucleotide | fitted relative affinity
GACGGTTTCGACTTTGGGGACGTGCTA | 5.73 z-score
TCAAGTTTCTCCTTTGTACTGTGCTAG | 2.83 z-score
GTCGGACTGGGACTGGGGACGTGCTAG | -0.516 z-score
TTAGATTTCAGTTCCAATTAGTGCTAG | 1.4 z-score
GTCTCTGTTCTTTTCAGTCCGTGCTAG | 2.16 z-score
TTAGGTATCGGTATCGGTCAGTGCTAG | 0.534 z-score
TTAGGTCTCGGACTGGGTCAGTGCTAG | -0.423 z-score
